# Published values collected from several papers.
# Each numbered part is a random draw from the data of one study; scales do not carry over between parts.

# Series 1
# Target: 5-hydroxytryptamine receptor 1B (HTR1B, Homo sapiens, UniProt P28222)
# Chain of UniProt P28222 (whole entry, looked up): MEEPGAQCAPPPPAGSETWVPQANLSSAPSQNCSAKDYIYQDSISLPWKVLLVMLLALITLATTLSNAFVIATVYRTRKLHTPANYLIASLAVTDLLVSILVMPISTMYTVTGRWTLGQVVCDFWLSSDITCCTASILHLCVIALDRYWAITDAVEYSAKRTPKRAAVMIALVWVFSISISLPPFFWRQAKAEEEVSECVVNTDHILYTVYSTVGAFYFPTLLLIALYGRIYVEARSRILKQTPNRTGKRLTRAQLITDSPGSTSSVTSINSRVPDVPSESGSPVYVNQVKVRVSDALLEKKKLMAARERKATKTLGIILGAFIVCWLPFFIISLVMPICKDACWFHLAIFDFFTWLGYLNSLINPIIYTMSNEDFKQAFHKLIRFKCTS
# Read-out: ligand displacement
# Method: radioligand
# Concentration: 10 µM
SMILES,inhibition [%]
Cc1nc(N2CC[C@@H](O)C2)ncc1-c1cc(C(F)(F)F)cc2[nH]ncc12,22.3
Cc1c(C(=O)O)cc(-c2ccc(C3CCNCC3)cc2)c2ccc(-c3ccc(C(F)(F)F)cc3)cc12,14.4
O=S(=O)(NC1CCC(c2cc(F)ccc2F)(S(=O)(=O)c2ccc(Cl)cc2)CC1)C(F)(F)F (stereo not shown),15.4
Cn1cc(Cl)c2c(Oc3c(F)cc(Nc4cc(Cl)nc(N)n4)cc3F)ccnc21,5.3
CN([C@@H]1CCc2c(CC(=O)O)c3ccccc3n2C1)S(=O)(=O)c1ccc(F)cc1,35.6
CCS(=O)(=O)c1cc2cc(C[C@@](O)(CC(C)(C)c3ccc(F)cc3C(N)=O)C(F)(F)F)[nH]c2cn1,4.85

# Series 2
# Cell line: A-375
# Concentration: 100 µM
# Time: 36 h
SMILES,viability [%]
C#C[C@]1(O)CC[C@H]2[C@@H]3CCc4cc(OC5CCCC5)ccc4[C@H]3CC[C@@]21C,-2.67
COC(=O)[C@H]1[C@H]2C[C@@H]3c4[nH]c5cc(OC)ccc5c4CCN3C[C@H]2C[C@@H](OC(=O)c2cc(OC)c(OC)c(OC)c2)[C@@H]1OC,14.7
CC(=O)OCC(=O)[C@@]1(O)CC[C@H]2[C@@H]3CCC4=CC(=O)CC[C@]4(C)[C@H]3[C@@H](O)C[C@@]21C,106
CCCCCCCCN=c1ccn(CCCCCCCCCCn2ccc(=NCCCCCCCC)cc2)cc1,-0.221

# Series 3
# Species: human
# Medium: microsomes or S9
# Concentration: 2 µM
# Time: 0.5 h
Compound,remaining compound [%]
CCCn1nc(C)c(-c2cncn2CCn2nc(C)c(C)c2C)c1C,43.2
COc1cc2c(Nc3ccc(Br)cc3F)ncnc2cc1OCC1CN(C(=O)OC(C)(C)C)CCO1 (stereo not shown),56.9
O=C1OC(C(=O)O)Cc2c(F)cc(Br)cc21 (stereo not shown),> 100
CCCN(CCC)C(=O)c1cc2cc(Cl)ncc2n1CCOC,11.2
CCCc1cc(-n2ccnc2C)n2nc3nc(C)cc(C)c3c2n1,82.2

# Series 4
# Target: NT-3 growth factor receptor (NTRK3, Homo sapiens, UniProt Q16288)
# Chain of UniProt Q16288 (whole entry, looked up): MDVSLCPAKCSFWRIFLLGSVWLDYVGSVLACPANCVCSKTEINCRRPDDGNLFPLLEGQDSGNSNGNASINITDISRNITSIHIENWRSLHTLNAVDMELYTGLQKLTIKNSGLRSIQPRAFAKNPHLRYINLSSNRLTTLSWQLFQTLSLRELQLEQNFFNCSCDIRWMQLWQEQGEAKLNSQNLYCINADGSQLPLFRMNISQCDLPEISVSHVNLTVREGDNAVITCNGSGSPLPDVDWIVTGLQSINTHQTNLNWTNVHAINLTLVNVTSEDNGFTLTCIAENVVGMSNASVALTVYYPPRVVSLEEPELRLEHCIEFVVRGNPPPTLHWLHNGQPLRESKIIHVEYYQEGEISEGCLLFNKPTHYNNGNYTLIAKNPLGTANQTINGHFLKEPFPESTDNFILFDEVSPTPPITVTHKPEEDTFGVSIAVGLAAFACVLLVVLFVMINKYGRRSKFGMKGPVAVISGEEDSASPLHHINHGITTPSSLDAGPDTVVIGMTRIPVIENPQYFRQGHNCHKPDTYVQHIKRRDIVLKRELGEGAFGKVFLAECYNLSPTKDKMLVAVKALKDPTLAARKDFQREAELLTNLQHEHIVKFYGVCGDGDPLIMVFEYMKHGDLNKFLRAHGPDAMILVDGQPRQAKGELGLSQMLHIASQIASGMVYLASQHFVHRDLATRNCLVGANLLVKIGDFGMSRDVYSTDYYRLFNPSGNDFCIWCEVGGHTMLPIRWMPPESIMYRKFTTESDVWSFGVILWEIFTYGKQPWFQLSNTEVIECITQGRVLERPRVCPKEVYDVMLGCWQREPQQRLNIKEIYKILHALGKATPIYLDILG
# Read-out: enzyme activity
# Action: inhibitor
# Concentration: 0.5 µM
# Reference: control
Compound,remaining activity [%]
FC(F)(F)c1ccc(/C=C/c2nc(COc3ccc(CCCCn4ccnn4)cc3)co2)cc1,98.9
Cc1ccc(S(=O)(=O)/C=C/C#N)cc1,95.5
CCCCc1c(-c2ccc(O)cc2)[nH]c2nccnc12,76.1
CC(C)(C)c1nc2c3cc[nH]c(=O)c3c3cc(F)ccc3c2[nH]1,6.81
Nc1nc(Nc2ccc(S(N)(=O)=O)cc2)nn1C(=S)Nc1c(F)cccc1F,3.59
O=Nc1c(-c2c(O)[nH]c3cc(Br)ccc23)[nH]c2ccccc12,4.98
CCN(CC)CCCCN1c2ccccc2Oc2ccc(Cl)cc21,103
O=Nc1c(-c2c(O)[nH]c3ccccc23)[nH]c2ccccc12,2.17
N#Cc1cnc2cnc(NCc3cccnc3)cc2c1Nc1ccc(F)c(Cl)c1,93.2
c1ccc2c(-c3ccncc3)c[nH]c2c1,100
c1ccc(-c2n[nH]c3c2oc2ccccc23)cc1,42.7
c1cc(-c2cnn3cc(-c4ccc(OCCN5CCCCC5)cc4)cnc23)ccn1,7.7
O=c1c(-c2ccc(F)cc2)c(-c2ccncc2)[nH]n1-c1ccc(Cl)cc1,99.2

# For quick reference, copied from above (series 3):
Compound,remaining compound [%]
CCCn1nc(C)c(-c2cncn2CCn2nc(C)c(C)c2C)c1C,43.2
O=C1OC(C(=O)O)Cc2c(F)cc(Br)cc21 (stereo not shown),> 100
CCCc1cc(-n2ccnc2C)n2nc3nc(C)cc(C)c3c2n1,82.2
CCCN(CCC)C(=O)c1cc2cc(Cl)ncc2n1CCOC,11.2
